Measurements of several laboratories.
Parts stem from different laboratories: compare values within a part only.
UniProt Q96Q40, sequence (whole entry, looked up): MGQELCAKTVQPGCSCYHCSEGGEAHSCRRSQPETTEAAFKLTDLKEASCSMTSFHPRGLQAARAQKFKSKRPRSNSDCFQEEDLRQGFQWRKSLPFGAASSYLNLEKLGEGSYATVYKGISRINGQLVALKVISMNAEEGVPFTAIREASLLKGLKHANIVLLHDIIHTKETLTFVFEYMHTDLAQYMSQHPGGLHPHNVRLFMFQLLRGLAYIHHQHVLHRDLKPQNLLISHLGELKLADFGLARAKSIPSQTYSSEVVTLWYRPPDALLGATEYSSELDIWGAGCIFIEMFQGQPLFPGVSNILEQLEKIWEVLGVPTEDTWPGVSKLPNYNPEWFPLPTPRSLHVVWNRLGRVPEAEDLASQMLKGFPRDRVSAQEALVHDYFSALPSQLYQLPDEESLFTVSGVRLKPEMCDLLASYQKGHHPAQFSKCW
UniProt P42684, sequence (whole entry, looked up): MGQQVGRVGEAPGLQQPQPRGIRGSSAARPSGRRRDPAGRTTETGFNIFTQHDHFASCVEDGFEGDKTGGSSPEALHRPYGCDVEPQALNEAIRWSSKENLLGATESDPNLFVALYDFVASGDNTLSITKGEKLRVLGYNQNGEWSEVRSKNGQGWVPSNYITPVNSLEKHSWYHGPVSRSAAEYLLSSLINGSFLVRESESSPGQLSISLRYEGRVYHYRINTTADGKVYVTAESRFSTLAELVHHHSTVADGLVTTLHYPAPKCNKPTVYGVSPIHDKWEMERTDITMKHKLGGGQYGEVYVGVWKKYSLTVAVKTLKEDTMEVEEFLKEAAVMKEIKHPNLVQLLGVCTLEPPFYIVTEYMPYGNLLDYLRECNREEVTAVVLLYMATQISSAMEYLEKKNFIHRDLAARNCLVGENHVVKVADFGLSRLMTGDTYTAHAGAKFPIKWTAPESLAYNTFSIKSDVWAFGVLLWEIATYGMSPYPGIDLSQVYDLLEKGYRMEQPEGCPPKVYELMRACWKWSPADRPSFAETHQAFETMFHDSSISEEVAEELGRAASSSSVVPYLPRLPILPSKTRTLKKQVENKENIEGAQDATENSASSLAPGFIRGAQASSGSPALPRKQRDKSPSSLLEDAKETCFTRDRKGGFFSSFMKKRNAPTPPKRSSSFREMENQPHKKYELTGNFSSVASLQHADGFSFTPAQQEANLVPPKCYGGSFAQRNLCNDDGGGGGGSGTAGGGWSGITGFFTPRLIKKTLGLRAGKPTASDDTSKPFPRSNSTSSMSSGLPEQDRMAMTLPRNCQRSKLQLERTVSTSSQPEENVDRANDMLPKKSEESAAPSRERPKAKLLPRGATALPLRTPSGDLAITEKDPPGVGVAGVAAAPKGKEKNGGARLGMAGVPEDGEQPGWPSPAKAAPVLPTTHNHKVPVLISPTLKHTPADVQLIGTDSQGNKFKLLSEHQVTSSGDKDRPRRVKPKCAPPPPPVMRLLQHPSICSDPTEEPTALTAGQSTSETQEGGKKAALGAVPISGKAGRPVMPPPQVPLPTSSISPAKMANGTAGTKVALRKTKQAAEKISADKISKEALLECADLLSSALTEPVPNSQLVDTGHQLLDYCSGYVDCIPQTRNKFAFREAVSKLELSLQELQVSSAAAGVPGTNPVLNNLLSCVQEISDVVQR
UniProt P09619, sequence (whole entry, looked up): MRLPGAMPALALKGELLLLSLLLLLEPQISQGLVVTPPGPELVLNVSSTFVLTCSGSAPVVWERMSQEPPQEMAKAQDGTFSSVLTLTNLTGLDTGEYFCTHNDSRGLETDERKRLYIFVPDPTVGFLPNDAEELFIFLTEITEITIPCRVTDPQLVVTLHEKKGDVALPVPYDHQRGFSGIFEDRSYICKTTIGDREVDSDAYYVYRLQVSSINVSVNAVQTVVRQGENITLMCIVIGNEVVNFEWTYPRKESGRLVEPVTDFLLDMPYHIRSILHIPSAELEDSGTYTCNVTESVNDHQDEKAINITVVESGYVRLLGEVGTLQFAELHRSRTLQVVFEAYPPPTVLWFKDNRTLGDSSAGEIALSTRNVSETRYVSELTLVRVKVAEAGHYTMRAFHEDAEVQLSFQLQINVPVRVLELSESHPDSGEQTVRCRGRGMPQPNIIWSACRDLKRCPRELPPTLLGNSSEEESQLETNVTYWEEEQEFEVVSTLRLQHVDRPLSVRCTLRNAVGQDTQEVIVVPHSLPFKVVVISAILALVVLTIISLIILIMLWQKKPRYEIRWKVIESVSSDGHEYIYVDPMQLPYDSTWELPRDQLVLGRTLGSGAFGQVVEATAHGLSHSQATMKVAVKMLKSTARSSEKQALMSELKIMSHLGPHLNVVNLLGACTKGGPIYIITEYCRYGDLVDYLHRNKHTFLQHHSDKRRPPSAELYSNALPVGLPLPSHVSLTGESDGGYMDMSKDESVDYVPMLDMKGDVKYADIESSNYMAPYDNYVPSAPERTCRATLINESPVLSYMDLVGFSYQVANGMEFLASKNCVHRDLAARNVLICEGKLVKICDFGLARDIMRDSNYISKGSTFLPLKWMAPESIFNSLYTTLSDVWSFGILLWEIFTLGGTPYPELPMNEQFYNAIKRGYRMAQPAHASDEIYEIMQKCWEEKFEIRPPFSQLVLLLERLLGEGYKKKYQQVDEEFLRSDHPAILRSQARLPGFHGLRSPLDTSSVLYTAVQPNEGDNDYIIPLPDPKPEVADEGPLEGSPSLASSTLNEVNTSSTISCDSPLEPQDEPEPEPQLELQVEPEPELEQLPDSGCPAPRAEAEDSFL
UniProt O75116, sequence (whole entry, looked up): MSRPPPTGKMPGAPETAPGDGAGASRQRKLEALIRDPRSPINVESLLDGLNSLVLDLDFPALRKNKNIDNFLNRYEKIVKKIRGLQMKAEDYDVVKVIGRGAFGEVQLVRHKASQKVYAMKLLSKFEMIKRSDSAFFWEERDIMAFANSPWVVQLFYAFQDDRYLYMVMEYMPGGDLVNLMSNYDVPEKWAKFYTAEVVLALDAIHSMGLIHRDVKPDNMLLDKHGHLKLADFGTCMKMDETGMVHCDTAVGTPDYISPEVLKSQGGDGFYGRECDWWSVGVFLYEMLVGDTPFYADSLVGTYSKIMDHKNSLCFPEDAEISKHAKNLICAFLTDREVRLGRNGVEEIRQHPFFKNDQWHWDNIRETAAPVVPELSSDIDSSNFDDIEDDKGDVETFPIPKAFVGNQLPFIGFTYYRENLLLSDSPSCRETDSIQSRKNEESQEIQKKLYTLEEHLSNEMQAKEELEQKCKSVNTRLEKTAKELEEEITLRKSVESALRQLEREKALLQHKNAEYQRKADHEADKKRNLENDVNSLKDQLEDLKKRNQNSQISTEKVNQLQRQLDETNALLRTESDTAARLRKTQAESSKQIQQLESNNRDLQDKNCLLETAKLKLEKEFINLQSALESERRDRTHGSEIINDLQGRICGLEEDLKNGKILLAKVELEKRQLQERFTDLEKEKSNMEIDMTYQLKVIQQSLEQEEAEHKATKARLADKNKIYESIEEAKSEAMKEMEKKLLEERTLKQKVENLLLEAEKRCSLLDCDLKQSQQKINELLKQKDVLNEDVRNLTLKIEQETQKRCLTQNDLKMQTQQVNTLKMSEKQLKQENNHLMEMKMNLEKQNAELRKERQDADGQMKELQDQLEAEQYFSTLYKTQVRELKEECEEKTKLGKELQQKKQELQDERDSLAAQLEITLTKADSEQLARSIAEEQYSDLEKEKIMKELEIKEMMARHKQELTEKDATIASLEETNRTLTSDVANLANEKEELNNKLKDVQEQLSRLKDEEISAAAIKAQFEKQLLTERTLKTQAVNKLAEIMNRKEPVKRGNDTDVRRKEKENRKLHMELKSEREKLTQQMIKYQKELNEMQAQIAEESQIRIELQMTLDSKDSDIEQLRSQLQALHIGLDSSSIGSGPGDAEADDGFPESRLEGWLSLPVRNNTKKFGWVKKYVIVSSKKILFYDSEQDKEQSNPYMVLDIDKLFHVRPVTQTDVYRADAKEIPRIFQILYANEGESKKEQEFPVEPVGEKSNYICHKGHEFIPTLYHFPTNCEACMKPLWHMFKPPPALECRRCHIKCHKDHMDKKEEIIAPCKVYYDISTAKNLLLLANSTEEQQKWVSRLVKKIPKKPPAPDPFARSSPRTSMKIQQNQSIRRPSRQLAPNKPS
UniProt P49760, sequence (whole entry, looked up): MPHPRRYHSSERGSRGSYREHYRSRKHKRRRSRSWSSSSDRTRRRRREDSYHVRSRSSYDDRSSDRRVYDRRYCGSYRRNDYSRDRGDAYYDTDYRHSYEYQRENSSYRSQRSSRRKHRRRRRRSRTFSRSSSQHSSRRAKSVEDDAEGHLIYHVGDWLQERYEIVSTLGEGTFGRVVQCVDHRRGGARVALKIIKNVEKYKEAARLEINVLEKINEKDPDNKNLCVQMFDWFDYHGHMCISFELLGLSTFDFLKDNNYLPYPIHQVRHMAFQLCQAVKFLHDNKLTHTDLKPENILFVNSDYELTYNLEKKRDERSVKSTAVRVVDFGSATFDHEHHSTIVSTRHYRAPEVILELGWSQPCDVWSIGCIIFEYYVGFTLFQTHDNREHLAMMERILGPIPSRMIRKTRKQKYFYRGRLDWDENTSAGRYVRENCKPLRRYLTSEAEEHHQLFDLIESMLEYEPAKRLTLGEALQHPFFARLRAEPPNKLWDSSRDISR

Series 1 — observed: cell-free assay; method: competition with immobilised ligand; tested at: 1 µM
Structure (SMILES): CO[C@H]1CC[C@H](CNc2ccc(S(=O)(=O)NC(=O)c3ccc(N4CCN(CC5=C(c6ccc(Cl)cc6)CC(C)(C)CC5)CC4)cc3Oc3cnc4[nH]ccc4c3)cc2[N+](=O)[O-])CC1
target | remaining binding [%]
Cyclin-dependent kinase 4, with cyclin D3 (CDK4, Homo sapiens, UniProt P11802) | 100
CLK2 (Homo sapiens, UniProt P49760) | 100
CDK15 (Homo sapiens, UniProt Q96Q40) | 100
ABL2 (Homo sapiens, UniProt P42684) | 81
EGFR (Homo sapiens, UniProt P00533, del747-752/P753S) | 100
CDK14 (Homo sapiens, UniProt O94921) | 100
ROCK2 (Homo sapiens, UniProt O75116) | 100
PDGFRB (Homo sapiens, UniProt P09619) | 99
EGFR (Homo sapiens, UniProt P00533, A750P/del747-749) | 58
PIK3C3 (Homo sapiens, UniProt Q8NEB9) | 100
MKNK1 (Homo sapiens, UniProt Q9BUB5) | 90

Series 2 — cell line: HaCaT; tested at: 100 µM; time: 18 h
SMILES | viability [%]
COCCc1ccc(OCC(O)CNC(C)C)cc1 (stereo not shown) | 96.3
N[C@@H](Cc1cc(I)c(Oc2cc(I)c(O)c(I)c2)c(I)c1)C(=O)O | 93.1
CC(=O)[C@@]1(O)CC[C@H]2[C@@H]3C[C@H](C)C4=CC(=O)C=C[C@]4(C)[C@@]3(F)[C@@H](O)C[C@@]21C | 108
O=C(Nc1ccccc1)OCC(CN1CCCCC1)OC(=O)Nc1ccccc1 (stereo not shown) | 62
CCCC(=O)OCOC(=O)C1=C(C)NC(C)=C(C(=O)OC)C1c1cccc(Cl)c1Cl (stereo not shown) | 32.8
CC(=O)Nc1ccc(O)cc1 | 108
Nc1nc(Cl)nc2c1ncn2[C@H]1C[C@H](O)[C@@H](CO)O1 | 107
CN1CCN(c2c(F)cc3c(=O)c(C(=O)O)cn4c3c2OCN4C)CC1 | 107
COc1cc([C@H]2Oc3cc([C@H]4Oc5cc(O)cc(O)c5C(=O)[C@@H]4O)ccc3O[C@@H]2CO)ccc1O | 76.5
CNCCc1ccccn1 | 107
CCOC(=O)C1=C(C)NC(C)=C(C(=O)OC)C1c1cccc(Cl)c1Cl (stereo not shown) | 16.7

Series 3 — mode: agonist
Target: Beta-1 adrenergic receptor (ADRB1, Homo sapiens, UniProt P08588)
UniProt P08588, sequence (whole entry, looked up): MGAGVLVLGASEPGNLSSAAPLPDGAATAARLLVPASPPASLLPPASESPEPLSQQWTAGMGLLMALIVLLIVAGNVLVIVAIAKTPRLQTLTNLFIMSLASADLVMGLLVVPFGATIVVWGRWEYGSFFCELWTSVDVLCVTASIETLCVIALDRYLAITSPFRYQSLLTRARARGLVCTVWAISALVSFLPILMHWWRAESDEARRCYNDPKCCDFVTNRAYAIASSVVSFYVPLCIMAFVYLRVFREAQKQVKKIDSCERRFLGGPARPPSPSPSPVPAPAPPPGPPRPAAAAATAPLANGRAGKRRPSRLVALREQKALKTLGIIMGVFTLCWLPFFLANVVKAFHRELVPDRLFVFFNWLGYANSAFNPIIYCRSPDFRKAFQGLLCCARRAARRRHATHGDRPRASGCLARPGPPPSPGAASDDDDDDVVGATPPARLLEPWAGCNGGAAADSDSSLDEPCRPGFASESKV
Structure (SMILES) | EC50 [µM]
Cc1ccc(/C=C(/C#N)c2nc(-c3cc4c(ccc5ccccc54)oc3=O)cs2)s1 | ≥ 100
COc1ccccc1N1CCN(CC(=O)NC2CCN(C3CC3)CC2)CC1 | ≥ 100
C[C@H](NCCc1ccc(O)cc1)[C@H](O)c1ccc(O)cc1 | 0.105
COc1ccccc1N1CCN(c2nc3c(C)cccn3c(=O)c2C=O)CC1 | ≥ 100
Cc1oc(C(O)c2cccc(O)c2)nc1C(=O)N1CCOCC1 (stereo not shown) | 1.12
C[C@@H](O)[C@H](NC(=O)[C@@H]1CSSC[C@H](NC(=O)[C@H](N)Cc2ccccc2)C(=O)N[C@@H](Cc2ccc(O)cc2)C(=O)N[C@H](Cc2c[nH]c3ccccc23)C(=O)N[C@@H](CCCCN)C(=O)N1)C(N)=O | ≥ 100
O=C(c1cc(-c2ccc(F)cc2)nc2ccccc12)N1CCCC1c1nc(C2CCOCC2)no1 (stereo not shown) | ≥ 100
O=C(Nc1cnc2c(c1)COCC2)c1ccc2ccccc2n1 | ≥ 100

Series 4
Structure (SMILES): COc1cc(C(=O)N2CCC(N3CCN(C)CC3)CC2)ccc1Nc1ncc2c(n1)N(C)c1ccccc1C(=O)N2C
tested on | assay | system | setting | inhibition
human PBMC | probe labeling, inhibitor, KiNativ profiling | cell lysate | concentration not given, LYS1 site, together with: ATP acyl-phosphate probe 0.1 µM | 8.5%
SLK (human) | probe labelling, KiNativ, measured: Lys1 site peptide | PBMC lysate (human) | 1 µM, together with: ATP acyl-phosphate probe | -1.6%
PIK3CD human | KiNativ profiling | human PBMC | 0.1 µM, ATP site, together with: ATP acyl phosphate probe | 10.3%
QSK (mouse) | probe labelling, KiNativ, measured: LYS2 site peptide | brain tissue lysate (mouse) | 0.1 µM, together with: ADP acyl-phosphate probe | 11.9%
PCTAIRE1 (mouse) | probe labelling, KiNativ ATP probe | mouse brain lysate | 1 µM, LYS1 labelled site | 17.7%
NDR1 (mouse) | probe labelling, KiNativ, measured: DTGHVYAMkILR peptide, LYS1 site | brain tissue lysate (mouse) | 1 µM, together with: ATP acyl-phosphate probe | -0.9%
ILK (human) | probe labelling, KiNativ ADP probe | human PBMC lysate | concentration not given, LYS1 labelled site | 10.6%
mouse JNK1/JNK2/JNK3 | probe labelling, KiNativ ATP probe | mouse brain lysate | 0.1 µM, LYS2 site DLkPSNIVVK | 3.3%
human PBMC | probe labeling, inhibitor, KiNativ profiling | cell lysate | concentration not given, domain 1, LYS1 site, together with: ATP acyl-phosphate probe 1 µM | -4%
SLK human | KiNativ profiling | human PBMC | 1 µM, LYS2 site, together with: ATP acyl phosphate probe | 20.3%

For quick reference, copied from above (series 3):
Structure (SMILES) | EC50 [µM]
COc1ccccc1N1CCN(c2nc3c(C)cccn3c(=O)c2C=O)CC1 | ≥ 100
Cc1oc(C(O)c2cccc(O)c2)nc1C(=O)N1CCOCC1 (stereo not shown) | 1.12
O=C(Nc1cnc2c(c1)COCC2)c1ccc2ccccc2n1 | ≥ 100
C[C@H](NCCc1ccc(O)cc1)[C@H](O)c1ccc(O)cc1 | 0.105
C[C@@H](O)[C@H](NC(=O)[C@@H]1CSSC[C@H](NC(=O)[C@H](N)Cc2ccccc2)C(=O)N[C@@H](Cc2ccc(O)cc2)C(=O)N[C@H](Cc2c[nH]c3ccccc23)C(=O)N[C@@H](CCCCN)C(=O)N1)C(N)=O | ≥ 100
